Measured values of several laboratories.
Numbers after ± are the reported error.
Organism: Plasmodium falciparum

SMILES	test	system	setting	IC50
CC[C@H](C)[C@@H]1NC(=O)[C@H](CCCCN)NC(=O)[C@H](CCCCN)NC(=O)[C@H](Cc2ccc(O)cc2)NC(=O)[C@H](CC(C)C)NC(=O)[C@@H]2CCCN2C(=O)[C@H](C)NC(=O)CNC(=O)CNC(=O)[C@H](CO)NC(=O)CNC(=O)CNC(=O)[C@H](CO)NC(=O)[C@H](CCC(=O)O)NC(=O)[C@H](CC(C)C)NC(=O)[C@H](CC(C)C)NC(=O)[C@H](CCCCN)NC(=O)[C@H](CCCCN)NC(=O)[C@H]([C@@H](C)CC)NC(=O)[C@H]([C@@H](C)CC)NC(=O)[C@H](CCCCN)NC(=O)[C@H](CCCCN)NC(=O)[C@H](Cc2ccc(O)cc2)NC(=O)[C@H](CC(C)C)NC(=O)[C@@H]2CCCN2C(=O)[C@H](C)NC(=O)CNC(=O)CNC(=O)[C@H](CO)NC(=O)CNC(=O)CNC(=O)[C@H](CO)NC(=O)[C@H](CCC(=O)O)NC(=O)[C@H](CC(C)C)NC(=O)[C@H](CC(C)C)NC(=O)[C@H](CCCCN)NC(=O)[C@H](CCCCN)NC(=O)[C@H]([C@@H](C)CC)NC1=O	parasite growth	3D7	72 h, Albumax II medium, no serum	7900 ± 800 nM
c1cncc(CCCOCCCCCCCCCCOC2CCCCO2)c1 (stereo not shown)	anti-HRPII ELISA	W2 chloroquine-resistant	72 h	14000 ± 600 nM
CCCCNCC(O)Cn1c2ccccc2c2ccccc21 (stereo not shown)	SYBR Green I	3D7 chloroquine-sensitive	72 h	760 ± 22 nM
C=CC1CN2CCC1CC2C(OC(=O)NCCCCCCNC(=O)OC(c1ccnc2ccc(OC)cc12)C1CC2CCN1CC2C=C)c1ccnc2ccc(OC)cc12 (stereo not shown)	parasite growth, [3H]-hypoxanthine incorporation	HB3, chloroquine-sensitive	–	298 ± 30.1 nM
Nc1ncnc2c1c(-c1ccc(Oc3ccccc3)cc1)cn2C1CCCC1	merozoite invasion of erythrocytes	FVO	–	30000 nM
COc1ccc2nc3cc(Cl)ccc3c(NCCN3C(=O)c4ccc5c6c(ccc(c46)C3=O)C(=O)N(CCN(C)C)C5=O)c2c1	parasite growth, SYBR Green	W2	72 h, drug-resistant strain, blood stage	28.5 nM
COC(=O)c1cc2c([nH]c3ccccc32)c(-c2ccc3c(c2)OCO3)n1	parasite growth	–	48 h, drug-resistant strain, blood stage	9.04 µg/mL
CCCCN=Cc1[nH]c(-c2ccc[nH]2)cc1OC	parasite growth	Dd2, chloroquine-resistant	–	159 nM
COc1cc2c3cc1Oc1cc(ccc1O)CC1c4c(cc(OC)c(O)c4Oc4ccc(cc4)CC3N(C)CC2)CCN1C (stereo not shown)	parasite growth, SYBR green I	INDO	–	466 ± 50.8 nM
CCCCCCN=Cc1[nH]c(-c2ccc[nH]2)cc1OC	parasite growth	Dd2, chloroquine-resistant	–	37 nM
CC1N=C(CCCCCCCCCCC2=CC(CCCCCCCCCCC3=NC(C)C(O)CC3)C3CCCN3C2)CCC1O (stereo not shown)	pLDH	D6 chloroquine-sensitive	–	0.56 ± 0.005 µg/mL
N#Cc1c(-c2ccco2)[n+]([O-])c2ccc(Cl)cc2[n+]1[O-]	parasite growth, [3H]hypoxanthine incorporation	K1 chloroquine-resistant	–	340 ± 40 nM
CCC1=CC(c2ccc[nH]2)=NC1=CNC1CCCCCC1	parasite growth	Dd2, chloroquine-resistant	–	> 250 nM
CC[C@H](C)[C@@H]1NC(=O)[C@H](CCCCN)NC(=O)[C@H](CCCCN)NC(=O)[C@H](Cc2ccc(O)cc2)NC(=O)[C@H](CC(C)C)NC(=O)[C@@H]2CCCN2C(=O)CNC(=O)CNC(=O)[C@@H](NC(=O)CN)CSSC[C@@H](C(=O)N[C@@H](CCC(=O)O)C(=O)N[C@@H](CO)C(N)=O)NC(=O)[C@H](CC(C)C)NC(=O)[C@H](CCCCN)NC(=O)[C@H](CCCCN)NC(=O)[C@H]([C@@H](C)CC)NC(=O)[C@H]([C@@H](C)CC)NC(=O)[C@H](CCCCN)NC(=O)[C@H](CCCCN)NC(=O)[C@H](Cc2ccc(O)cc2)NC(=O)[C@H](CC(C)C)NC(=O)[C@@H]2CCCN2C(=O)[C@H](C)NC(=O)CNC(=O)CNC(=O)[C@H](CO)NC(=O)CNC(=O)CNC(=O)[C@H](CO)NC(=O)[C@H](CCCCN)NC(=O)[C@H](CC(C)C)NC(=O)[C@H](CC(C)C)NC(=O)[C@H](CCCCN)NC(=O)[C@H](CCCCN)NC(=O)[C@H]([C@@H](C)CC)NC1=O	parasite growth	3D7	72 h, 5% serum plus Albumax II	12500 ± 1100 nM
COC1=CC(c2ccc[nH]2)=NC1=CNC1CCCC1	parasite growth	Dd2, chloroquine-resistant	–	84 nM
CC[C@H](C)[C@@H]1NC(=O)[C@H](CCCCN)NC(=O)[C@H](CCCCN)NC(=O)[C@H](Cc2ccc(O)cc2)NC(=O)[C@H](CC(C)C)NC(=O)[C@@H]2CCCN2C(=O)CNC(=O)CNC(=O)[C@@H](NC(=O)CN)CSSC[C@@H](C(=O)N[C@@H](CCCCN)C(=O)N[C@@H](CO)C(N)=O)NC(=O)[C@H](CC(C)C)NC(=O)[C@H](CCCCN)NC(=O)[C@H](CCCCN)NC(=O)[C@H]([C@@H](C)CC)NC(=O)[C@H]([C@@H](C)CC)NC(=O)[C@H](CCCCN)NC(=O)[C@H](CCCCN)NC(=O)[C@H](Cc2ccc(O)cc2)NC(=O)[C@H](CC(C)C)NC(=O)[C@@H]2CCCN2C(=O)[C@H](C)NC(=O)CNC(=O)CNC(=O)[C@H](CO)NC(=O)CNC(=O)CNC(=O)[C@H](CO)NC(=O)[C@H](CCCCN)NC(=O)[C@H](CC(C)C)NC(=O)[C@H](CC(C)C)NC(=O)[C@H](CCCCN)NC(=O)[C@H](CCCCN)NC(=O)[C@H]([C@@H](C)CC)NC1=O	parasite growth	3D7	72 h, 5% serum plus Albumax II	10200 ± 600 nM

SMILES	test	system	setting	IC50
COc1cccc2c(-c3ccc(O)c4c3C[C@@H](C)N[C@@H]4C)c(C)cc(O)c12	parasite growth, SYBR Green	W2	96 h, drug-resistant strain, blood stage	138 nM
COc1ccc2c(=O)c3cc(OS(=O)(=O)C(F)(F)F)ccc3[nH]c2c1	parasite growth, SYBR Green I fluorescence	7G8, multidrug resistant	–	56.6 nM
Oc1c(CN(Cc2ccccn2)Cc2ccccn2)cc(CCn2cc(COCCOCCOCCOCc3cn(CCc4cc(CN(Cc5ccccn5)Cc5ccccn5)c(O)c(CN(Cc5ccccn5)Cc5ccccn5)c4)nn3)nn2)cc1CN(Cc1ccccn1)Cc1ccccn1	growth, [3H]hypoxanthine incorporation	W2 chloroquine-resistant	48 h	79 ± 14 nM
Cc1[nH]c(C=NC23CC4CC(CC(C4)C2)C3)c(C)c1-c1ccc[nH]1	parasite growth	Dd2, chloroquine-resistant	–	1740 nM
O=C(O)[C@@H]1Cc2c([nH]c3ccccc23)[C@@H](c2ccc(Cl)cc2Br)N1	parasite growth	Dd2	72 h	360 ± 40 nM
CC[C@H](C)[C@@H]1NC(=O)[C@H](CCCCN)NC(=O)[C@H](CCCCN)NC(=O)[C@H](Cc2ccc(O)cc2)NC(=O)[C@H](CC(C)C)NC(=O)[C@@H]2CCCN2C(=O)[C@H](C)NC(=O)CNC(=O)CNC(=O)[C@H](CO)NC(=O)CNC(=O)CNC(=O)[C@H](CO)NC(=O)[C@H](CCC(=O)O)NC(=O)[C@H](CC(C)C)NC(=O)[C@H](CC(C)C)NC(=O)[C@H](CCCCN)NC(=O)[C@H](CCCCN)NC(=O)[C@H]([C@@H](C)CC)NC(=O)[C@H]([C@@H](C)CC)NC(=O)[C@H](CCCCN)NC(=O)[C@H](CCCCN)NC(=O)[C@H](Cc2ccc(O)cc2)NC(=O)[C@H](CC(C)C)NC(=O)[C@@H]2CCCN2C(=O)[C@H](C)NC(=O)CNC(=O)[C@@H](NC(=O)CN)CSSC[C@@H](C(=O)N[C@@H](CCC(=O)O)C(=O)N[C@@H](CO)C(=O)O)NC(=O)[C@H](CC(C)C)NC(=O)[C@H](CCCCN)NC(=O)[C@H](CCCCN)NC(=O)[C@H]([C@@H](C)CC)NC1=O	parasite growth	3D7	72 h, 5% serum plus Albumax II	34300 ± 3200 nM
C#CCOc1ccc(C=NNC(=N)NN=Cc2ccc(OCC#C)cc2)cc1	parasite growth, SYBR Green	DD2	72 h, drug-resistant strain, blood stage	199 nM
CCc1c(C)[nH]c(C=NC23CC4CC(CC(C4)C2)C3)c1C	parasite growth, SYBR Green I fluorescence	D6, chloroquine-sensitive	–	33 nM
CC(=O)O[C@@H]1C[C@H]2C(C)(C)C(=O)C=C[C@]2(C)[C@H]2CC[C@]3(C)C(=CC[C@H]3C3=CC(O)OC3=O)[C@@]21C (stereo partly shown)	[3H]hypoxanthine incorporation	W2, chloroquine-resistant	–	1100 nM
COC1=CC(c2ccc[nH]2)=NC1=CNC1CCCCC1	parasite growth	Dd2, chloroquine-resistant	–	71 nM
CC[C@H](C)[C@@H]1NC(=O)[C@H](CCCCN)NC(=O)[C@H](CCCCN)NC(=O)[C@H](Cc2ccc(O)cc2)NC(=O)[C@H](CC(C)C)NC(=O)[C@@H]2CCCN2C(=O)[C@H](C)NC(=O)CNC(=O)CNC(=O)[C@H](CO)NC(=O)CNC(=O)CNC(=O)[C@H](CO)NC(=O)[C@H](CCC(=O)O)NC(=O)[C@H](CC(C)C)NC(=O)[C@H](CC(C)C)NC(=O)[C@H](CCCNC(=N)N)NC(=O)[C@H](CCCCN)NC(=O)[C@H]([C@@H](C)CC)NC(=O)[C@H]([C@@H](C)CC)NC(=O)[C@H](CCCCN)NC(=O)[C@H](CCCCN)NC(=O)[C@H](Cc2ccc(O)cc2)NC(=O)[C@H](CC(C)C)NC(=O)[C@@H]2CCCN2C(=O)[C@H](C)NC(=O)CNC(=O)CNC(=O)[C@H](CO)NC(=O)CNC(=O)CNC(=O)[C@H](CO)NC(=O)[C@H](CCC(=O)O)NC(=O)[C@H](CC(C)C)NC(=O)[C@H](CC(C)C)NC(=O)[C@H](CCCNC(=N)N)NC(=O)[C@H](CCCCN)NC(=O)[C@H]([C@@H](C)CC)NC1=O	parasite growth	3D7	72 h, 5% serum plus Albumax II	12500 ± 900 nM
CCC1=CC(c2ccc[nH]2)=NC1=CNC1CCCCCCC1	parasite growth	7G8, chloroquine-resistant	–	> 250 nM
CC[C@H](C)[C@@H]1NC(=O)[C@H](CCCCN)NC(=O)[C@H](CCCCN)NC(=O)[C@H](Cc2ccc(O)cc2)NC(=O)[C@H](CC(C)C)NC(=O)[C@@H]2CCCN2C(=O)[C@H](C)NC(=O)CNC(=O)CNC(=O)[C@H](CO)NC(=O)CNC(=O)CNC(=O)[C@H](CO)NC(=O)[C@H](CCC(=O)O)NC(=O)[C@H](CC(C)C)NC(=O)[C@H](CC(C)C)NC(=O)[C@H](CCCCN)NC(=O)[C@H](CCCCN)NC(=O)[C@H]([C@@H](C)CC)NC(=O)[C@H]([C@@H](C)CC)NC(=O)[C@H](CCCCN)NC(=O)[C@H](CCCCN)NC(=O)[C@H](Cc2ccc(O)cc2)NC(=O)[C@H](CC(C)C)NC(=O)[C@@H]2CCCN2C(=O)[C@H](C)NC(=O)CNC(=O)[C@@H](NC(=O)CN)CSSC[C@@H](C(=O)N[C@@H](CCC(=O)O)C(=O)N[C@@H](CO)C(N)=O)NC(=O)[C@H](CC(C)C)NC(=O)[C@H](CCCCN)NC(=O)[C@H](CCCCN)NC(=O)[C@H]([C@@H](C)CC)NC1=O	parasite growth	3D7	72 h, 5% serum plus Albumax II	26200 ± 1700 nM
Clc1ccc2c(NCCCN3CCN(c4ccnc(N5CCCC5)n4)CC3)ccnc2c1	parasite growth	W2	72 h, drug-resistant strain, blood stage	30 nM
Cc1ccc(C(C)C)cc1.Cn1ccnc1CNCCNc1ccnc2cc(Cl)ccc12.[Cl-].[Cl][Ru+]	parasite growth, parasite lactate dehydrogenase	Dd2 chloroquine-resistant	–	19700 ± 400 nM

Repeated from above:
SMILES	test	system	setting	IC50
C#CCOc1ccc(C=NNC(=N)NN=Cc2ccc(OCC#C)cc2)cc1	parasite growth, SYBR Green	DD2	72 h, drug-resistant strain, blood stage	199 nM
CCc1c(C)[nH]c(C=NC23CC4CC(CC(C4)C2)C3)c1C	parasite growth, SYBR Green I fluorescence	D6, chloroquine-sensitive	–	33 nM
CC(=O)O[C@@H]1C[C@H]2C(C)(C)C(=O)C=C[C@]2(C)[C@H]2CC[C@]3(C)C(=CC[C@H]3C3=CC(O)OC3=O)[C@@]21C (stereo partly shown)	[3H]hypoxanthine incorporation	W2, chloroquine-resistant	–	1100 nM
COC1=CC(c2ccc[nH]2)=NC1=CNC1CCCCC1	parasite growth	Dd2, chloroquine-resistant	–	71 nM
CC[C@H](C)[C@@H]1NC(=O)[C@H](CCCCN)NC(=O)[C@H](CCCCN)NC(=O)[C@H](Cc2ccc(O)cc2)NC(=O)[C@H](CC(C)C)NC(=O)[C@@H]2CCCN2C(=O)[C@H](C)NC(=O)CNC(=O)CNC(=O)[C@H](CO)NC(=O)CNC(=O)CNC(=O)[C@H](CO)NC(=O)[C@H](CCC(=O)O)NC(=O)[C@H](CC(C)C)NC(=O)[C@H](CC(C)C)NC(=O)[C@H](CCCNC(=N)N)NC(=O)[C@H](CCCCN)NC(=O)[C@H]([C@@H](C)CC)NC(=O)[C@H]([C@@H](C)CC)NC(=O)[C@H](CCCCN)NC(=O)[C@H](CCCCN)NC(=O)[C@H](Cc2ccc(O)cc2)NC(=O)[C@H](CC(C)C)NC(=O)[C@@H]2CCCN2C(=O)[C@H](C)NC(=O)CNC(=O)CNC(=O)[C@H](CO)NC(=O)CNC(=O)CNC(=O)[C@H](CO)NC(=O)[C@H](CCC(=O)O)NC(=O)[C@H](CC(C)C)NC(=O)[C@H](CC(C)C)NC(=O)[C@H](CCCNC(=N)N)NC(=O)[C@H](CCCCN)NC(=O)[C@H]([C@@H](C)CC)NC1=O	parasite growth	3D7	72 h, 5% serum plus Albumax II	12500 ± 900 nM
